Published values of several laboratories.
Each numbered part is a random draw from the data of one study; scales do not carry over between parts.

Block 1
Target: Sal-like protein 4, full length isoform A (SALL4, Homo sapiens, UniProt Q9UJQ4, residues 1-1053)
UniProt Q9UJQ4, sequence (whole entry, looked up): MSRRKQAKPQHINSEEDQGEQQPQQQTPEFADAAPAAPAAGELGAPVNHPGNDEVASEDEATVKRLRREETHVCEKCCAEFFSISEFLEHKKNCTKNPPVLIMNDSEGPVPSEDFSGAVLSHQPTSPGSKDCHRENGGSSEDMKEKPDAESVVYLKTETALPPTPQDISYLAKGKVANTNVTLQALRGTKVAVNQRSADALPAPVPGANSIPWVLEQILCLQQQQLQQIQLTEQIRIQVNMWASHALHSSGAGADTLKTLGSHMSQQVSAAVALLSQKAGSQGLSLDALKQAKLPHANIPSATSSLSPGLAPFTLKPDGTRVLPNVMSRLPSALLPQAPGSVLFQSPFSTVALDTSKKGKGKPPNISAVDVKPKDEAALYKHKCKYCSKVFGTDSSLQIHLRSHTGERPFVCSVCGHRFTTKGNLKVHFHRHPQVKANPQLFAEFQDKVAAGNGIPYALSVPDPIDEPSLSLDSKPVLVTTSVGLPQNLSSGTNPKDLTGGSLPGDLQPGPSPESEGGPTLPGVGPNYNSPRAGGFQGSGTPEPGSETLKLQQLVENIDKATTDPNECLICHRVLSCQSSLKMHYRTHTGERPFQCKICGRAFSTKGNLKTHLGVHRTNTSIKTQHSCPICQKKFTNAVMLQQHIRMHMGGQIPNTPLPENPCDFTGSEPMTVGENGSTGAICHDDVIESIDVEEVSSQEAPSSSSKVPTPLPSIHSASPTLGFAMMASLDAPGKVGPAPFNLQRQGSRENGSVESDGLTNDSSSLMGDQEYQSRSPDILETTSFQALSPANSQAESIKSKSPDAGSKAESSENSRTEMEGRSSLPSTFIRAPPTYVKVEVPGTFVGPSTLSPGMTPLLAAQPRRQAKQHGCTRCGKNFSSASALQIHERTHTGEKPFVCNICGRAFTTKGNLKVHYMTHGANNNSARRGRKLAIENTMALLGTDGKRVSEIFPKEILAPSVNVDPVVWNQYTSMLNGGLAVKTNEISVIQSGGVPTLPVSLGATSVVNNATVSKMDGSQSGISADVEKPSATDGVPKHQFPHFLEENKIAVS
Method: universal PBM
Form: double-stranded DNA, one strand shown
Matrix: in vitro
Tested at: 600 nM
Setting: 8-mer, flanks averaged, mean of replicates
Reading: higher = stronger binding
Sequence	E-score
ATACCTAA	0.275
ATAGCCCG	-0.147
AGTCCGAA	0.0276
GGTCATCA	0.107
CCCAGAGA	-0.191
CCTGACGC	-0.341
ATCGCCGC	-0.29
AGGCCCAT	-0.275
GTCGCGAA	-0.125
CTCACCTA	0.0643
AGCGGTGA	-0.171
AGATTGTA	0.175
AAGGGCCG	-0.362
CGAGATAA	0.113
CATCCTAG	-0.214
GCGGAGAC	-0.12
CAGTCCGA	-0.153
AATCCAGT	-0.0124
AGAGTGCG	-0.161
GACTCATA	0.206
GCTCTCGA	-0.183
GAAGACAC	-0.0914
AGCGAGGA	-0.122
GCAGTCGC	-0.23
ACCACAAA	0.128

Block 2
Target: PABPC1L2, full length, GST fusion (mouse, UniProt A0ABA7IW68)
Method: RNAcompete
Form: RNA
Matrix: in vitro
Tested at: 20 nM
Setting: 7-mer, probes averaged, single round
Reference: mean of 7-mers
Reading: higher = stronger binding
Construct (chain): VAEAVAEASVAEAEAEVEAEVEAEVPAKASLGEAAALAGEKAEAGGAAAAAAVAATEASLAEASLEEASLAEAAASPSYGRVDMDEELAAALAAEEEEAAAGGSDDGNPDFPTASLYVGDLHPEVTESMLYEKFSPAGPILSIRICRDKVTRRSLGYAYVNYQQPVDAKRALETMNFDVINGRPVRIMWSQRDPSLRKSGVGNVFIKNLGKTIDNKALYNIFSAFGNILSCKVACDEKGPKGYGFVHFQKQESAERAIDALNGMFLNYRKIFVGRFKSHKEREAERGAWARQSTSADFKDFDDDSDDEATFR
Sequence	7-mer Z-score
CGGUAGG	-0.0518
AUUUCAG	-0.257
GGUAGGG	0.18
AGAGUAU	-0.211
CAAGCAG	-0.166
UAUUAGG	0.106
CGCUAGU	-0.364
GCCGAGG	-0.0609
GCCAAGU	-0.157
CCGUGAC	-0.175
GCCCACG	-0.246
CGGUCUA	-0.237
UCAAUCA	-0.186
AGCGGGU	0.456
AUCUAUG	-0.117
GUCAAAA	2.36
UCCUUAA	-0.219
CUUCGCU	-0.416
GUUGCUU	-0.26
CGAUAGU	-0.193
GAGCUGA	0.046

Block 3
Target: Histone acetyltransferase KAT6A, winged helix 1, GST fusion (KAT6A, Homo sapiens, UniProt Q92794, residues 1-85)
Method: protein binding microarray
Form: double-stranded DNA, one strand shown
Matrix: in vitro
Tested at: not given
Setting: 8-mer, flanks averaged, mean of 2 arrays, mostly near background
Reference: not given
Reading: higher = stronger binding
Residues (chain): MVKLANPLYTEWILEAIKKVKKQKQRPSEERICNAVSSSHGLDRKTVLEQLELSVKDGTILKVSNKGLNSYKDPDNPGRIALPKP
Sequence	E-score
AAAAACAT	-0.119
CTTGTATC	-0.148
CAACAAAG	-0.184
TCTGCCCA	-0.274
ATTCACTA	-0.283
ATATTTAC	0.0379
CCCACAGC	-0.217
ATTCGGAA	0.0178
GCTAATAA	0.0199
CCCGGTAA	0.29
AATGAGAA	-0.0823
CATTCGGA	0.00207
ATACCAAG	0.0328
CCCCCGAA	0.0509
GTTGGATA	-0.224
ACTAAGCT	-0.247
CCTACCTC	-0.319
AAATCAGG	-0.0618
ATATTACA	0.0531

Block 4
Target: RING finger protein unkempt homolog, zinc fingers 1-6, GST-SBP tag (UNK, Homo sapiens, UniProt Q9C0B0, residues 30-357)
Method: RNA Bind-n-Seq
Form: RNA
Matrix: in vitro
Tested at: not given
Setting: RNA with constant flanks, human and mouse sites, ends assumed
Reference: input RNA pool
Reading: higher = stronger binding
Constant ends, left off below: GGGAGUUCUACAGUCCGACGAUC … CAACAGAGGAUUGAGCAUCA
Target sequence (chain): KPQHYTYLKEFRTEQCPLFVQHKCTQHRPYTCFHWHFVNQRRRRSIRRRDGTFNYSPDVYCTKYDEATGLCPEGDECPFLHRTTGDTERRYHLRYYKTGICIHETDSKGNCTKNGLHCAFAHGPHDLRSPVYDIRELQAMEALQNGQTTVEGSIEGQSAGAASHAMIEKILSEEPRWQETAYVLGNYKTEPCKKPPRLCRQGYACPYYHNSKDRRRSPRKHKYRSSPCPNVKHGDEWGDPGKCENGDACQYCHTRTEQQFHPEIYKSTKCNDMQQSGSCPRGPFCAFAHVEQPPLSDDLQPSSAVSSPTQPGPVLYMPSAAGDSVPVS
Sequence	bound/input enrichment
GCAGAUGAAGUAGAGUUUACUGUGGUUCCUGAUAUGCUCUCUGCUCAAAGAAAUCAUGCUAUUAGGAUUAAAAAACUUCCCAAGGGCACGGUUUCAUUUCAUUCCCAUUCAGAUCACCGU	0.249 ratio
UUUCAUCUUUUGGAGUUAGAAAAGGUCCACGAACUGUGCGAUAACUUCUGCCACCGAUACAUUAGCUGUUUGAAGGGGAAAAUGCCCAUCGACCUCGUCAUUGAUGAAAGAGACGGCAGC	0.0952 ratio
GUCCCCACAAAGGCCAAGUUCCCUGCAUUUGAACUCUGAAAAGAAAGCAUGUCUCCUGCCGCUUACAGCAUGACUCUGUGUAUUACUCUGGGCUACAUAUUGCCCUUGCUUUUGAAGGAA	0.223 ratio
AACGAUCUCCUCUGCAAUGUUGAUGUCAGUGACCUAUCUUUUCAUGACUCGCUGGCUACUUUUGUUGCCAUCCUCAUCGCUCGGCAGUGUUUGCUCCUGGAAGAUCUGAUUCGCUGUGCU	0.272 ratio
AUUUGGUCUCUGUCCCCCCCCGGGGGGGGCGGGGGGGGCGAGCCCAGCCCCUCCGGUGCGACUAGGAAUGAAGCUGGACAGUGCCGAAGAGAAGUCGGGGGUCGGCUGCUCCCUGCCUGC	0.168 ratio
AAGGUGGAGCCGAGCAGCCAGAGCCCUGGGCGUUCACCCAGGCUUCCACGUUCCCCUCGCUUGGGUCACCGUCGAACCAACAGUACGGGAGGGAGUUCGGGAAGCAGUGUUGGAGGUGGC	0.212 ratio
GAAAGUAUCACGUCUGCUGGAAGAGAUGAUCUAGAGAGCUUCCAGCUUGAGAUAAGUGGCUUUUUAAAAGAAAUGGCAUGUCCAUAUUCUGUACUCAUAUCAGGAGAUAUUAAAGAUCGU	0.735 ratio
CACAUUUUCCCCUUACUCCUCAACAAUUGAAGUGGACUUUUAUGGGGUGGGGGGUGAUUGGCAAAAGGUAAUGUGUUCCAUUUAUAAUUUUGGUCUAUGGAGUUUUCUAACUUAGGAAGC	0.341 ratio
GGAAAAUAUGAAGGACUAACAAAGAAUUACAUGGAUUAUUUAUCCCGACUAUAUGAAAGAGAAAUCAAAGAUUUCUUUGAAGUUGCAAAGAUCAAGAUGACUGGCACAACUAAAGAAAGC	0.165 ratio
GGUUUUCCUAAAGUCAACAUUCUCCUCAGGGAUGCCAUUGAAAAGUUAUUUCCUGAUGCCAUUAGAAUGCGAGUUGAAGACAUUCAGCAGAAUAAUGAUGUAGUCCAAAGUCUUGCAGCC	0.255 ratio
AACUUAGAUAAACUGACCAGCUACUCAUGUGUAUGUACUGAACCUCCAAACCCCAGCAAUGAAACUCUAGCACAAUGGAAGAAAGAUAAUAUAACAGCACACAAUAUUUCCUGGAGAAAU	0.961 ratio

Block 5
Target: Ras GTPase-activating protein-binding protein 1, C-terminal RGG region (G3BP1, Homo sapiens, UniProt Q13283)
UniProt Q13283, sequence (whole entry, looked up): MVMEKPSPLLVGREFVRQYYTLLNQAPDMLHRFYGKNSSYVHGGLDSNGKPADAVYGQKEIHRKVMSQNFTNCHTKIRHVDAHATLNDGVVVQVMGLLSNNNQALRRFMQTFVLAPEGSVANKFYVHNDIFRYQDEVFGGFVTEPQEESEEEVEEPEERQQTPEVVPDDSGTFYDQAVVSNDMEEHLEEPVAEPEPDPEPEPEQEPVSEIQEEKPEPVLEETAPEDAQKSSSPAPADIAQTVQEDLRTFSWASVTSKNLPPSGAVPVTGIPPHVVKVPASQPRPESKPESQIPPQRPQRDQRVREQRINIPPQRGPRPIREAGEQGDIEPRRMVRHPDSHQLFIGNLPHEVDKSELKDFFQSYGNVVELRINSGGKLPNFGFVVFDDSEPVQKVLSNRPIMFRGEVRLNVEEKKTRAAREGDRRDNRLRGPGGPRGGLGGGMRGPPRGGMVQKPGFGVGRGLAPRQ
Method: RNA Bind-n-Seq
Form: RNA
Matrix: in vitro
Tested at: 1 µM
Setting: whole 134-nt RNA, ends assumed
Added: 150 mM KCl
Reference: input library
Reading: higher = stronger binding
Constant ends, left off below: GGGAGUUCUACAGUCCGACGAUC … UGGAAUUCUCGGGUGUCAAGG
Sequence	log2 enrichment
CUCAAGUCCUGUGCUACACAUCGUAUGUACCGAAUCGGGCCGGCCGGGGCCGGGAAAGUAUUAUGUUACGCCGUUCGGAUCUGCACUUCC	-1.2
AGUCCUGUGCUACACAUCGUAUGUACCGAAUCGGAAAAGGGGAAAAGGGGAAAAGGGAAAGUAUUAUGUUACGCCGUUCGGAUCUGCACU	-0.432
CAAGUCCUGUGCUACACAUCGUAUGUACCGAAUCGGGAGGGAAAAAAAGGGAGGGAAAGUAUUAUGUUACGCCGUUCGGAUCUGCACUUC	1.05
UCCUUUCUGUCAUUUUACACCCACAGUUGAAGAUUCCUGUCUCUGGAUCCAAAUCAGAGGGCCUUCUCUACGUCCACUCAUCCAGAGGUG	-1.8
CCUCAAGUCCUGUGCUACACAUCGUAUGUACCGAAUCGGGAGGAGGGAGGGGAAAGUAUUAUGUUACGCCGUUCGGAUCUGCACUUCCAG	0.805
AGUCCUGUGCUACACAUCGUAUGUACCGAAUCGGGGUUUUUGGUUUUUGGGUUUUUGGAAAGUAUUAUGUUACGCCGUUCGGAUCUGCAC	-1.23
CUCAAGUCCUGUGCUACACAUCGUAUGUACCGAAUCGGUUUUUUUGGUGGUGGAAAGUAUUAUGUUACGCCGUUCGGAUCUGCACUUCCA	-1.02
AAGUCCUGUGCUACACAUCGUAUGUACCGAAUCGGAAAAGGGGAAAAGGGAAAAGGAAAGUAUUAUGUUACGCCGUUCGGAUCUGCACUU	-1.36
UCCUGUGCUACACAUCGUAUGUACCGAAUCGGGGCCCCCGGGGCCCCCGGGGCCCCCGGGAAAGUAUUAUGUUACGCCGUUCGGAUCUGC	-1.97

Block 6
Target: Interferon regulatory factor 7, full length, phosphomimetic (IRF7, Homo sapiens, UniProt Q92985, residues 1-503, S471D/S472D/S475D/S476D/S477D/S483D/S484D/S487D)
Method: protein-binding microarray
Form: double-stranded DNA, one strand shown
Matrix: in vitro
Tested at: 2200 nM top
Setting: 60-bp whole probe
Added: salmon DNA 0.4 mg/ml
Reference: random background probes
Reading: higher = stronger binding
Constant ends, left off below: GCCTAGCAC … GTCTTGATTCGCTTGACGCTGCTG
Residues (chain): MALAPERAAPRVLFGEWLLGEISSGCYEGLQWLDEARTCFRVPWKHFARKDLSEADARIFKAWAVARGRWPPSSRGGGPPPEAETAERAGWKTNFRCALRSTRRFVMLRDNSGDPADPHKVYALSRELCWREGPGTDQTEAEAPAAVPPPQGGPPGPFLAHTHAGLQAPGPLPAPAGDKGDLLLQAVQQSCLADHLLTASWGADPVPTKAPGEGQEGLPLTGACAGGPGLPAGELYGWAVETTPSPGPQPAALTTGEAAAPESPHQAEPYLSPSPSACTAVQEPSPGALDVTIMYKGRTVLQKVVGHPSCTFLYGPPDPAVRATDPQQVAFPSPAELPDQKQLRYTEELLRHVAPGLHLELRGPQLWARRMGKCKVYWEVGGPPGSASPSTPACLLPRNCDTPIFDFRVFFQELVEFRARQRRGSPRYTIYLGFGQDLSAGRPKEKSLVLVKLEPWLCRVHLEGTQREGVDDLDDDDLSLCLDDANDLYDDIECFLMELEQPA
Sequence	fitted relative affinity
GACGTTATCAGTATCGAGACGTGCTAG	0.627 z-score
CTTTTTAGAAATTTCTTTCTGTGCTAG	0.87 z-score
TTAGCTATCGACTATCGGTTAGTGCTA	0.332 z-score
TTCGGTTTCCTACTGCTTTAGTGCTAG	3.72 z-score
GACGATATCAGACTGGAGATGTGCTAG	-0.159 z-score
GACGGTTTGCTTATCCTGACGTGCTAG	1.61 z-score
TCTAATTTACTTTGGTTGGCGTGCTAG	0.491 z-score
GACGGGCTCGGACTGGGGACGTGCTAG	-1.21 z-score
TTAGATTCCCTTTTCCTTTAGTGCTAG	3.41 z-score
TTAGGGCTGGACTTTCGGTTAGTGCTA	4.06 z-score
GACGGTTTCGGGTTTAGGGACGTGCTA	7.62 z-score
TTAGATTTCAGTTTCGATTGGTGCTAG	10.6 z-score
CTAGGTCTCCTTTTCCTTTAGTGCTAG	1.99 z-score
GGATATATATCATTTAATTAGTGCTAG	0.151 z-score
CCCTGCGTGGTCTCGAGCTGGTGCTAG	-0.97 z-score
GACGATTTCAGGTTCGAGACGTGCTAG	1.63 z-score
TTAGGTAGCGACACTGGGTTAGTGCTA	-0.74 z-score

Repeated from above (block 3):
Sequence	E-score
ATTCGGAA	0.0178
GCTAATAA	0.0199
CCCGGTAA	0.29
AATGAGAA	-0.0823
CATTCGGA	0.00207
ATACCAAG	0.0328
CCCCCGAA	0.0509
GTTGGATA	-0.224
ACTAAGCT	-0.247
CCTACCTC	-0.319
AAATCAGG	-0.0618
ATATTACA	0.0531
